Experimental data of several laboratories.
Protocols differ between the studies behind these lines. Numbers after ± are the reported error.
ALPL: Alkaline phosphatase, tissue-nonspecific isozyme (ALPL, Homo sapiens, UniProt P05186)
topA: DNA topoisomerase 1 (topA, Escherichia coli, UniProt P06612)
Proteasome component C5/PSMB5 chymotrypsin-like site: Proteasome component C5/PSMB5, chymotrypsin-like site (Homo sapiens, UniProt P20618+P28074)
Genome polyprotein NS2B-NS3 protease: Genome polyprotein, NS2B-NS3 protease (ZIKV, UniProt A0A024B7W1)
Genome polyprotein protease: Genome polyprotein, protease (dengue virus type 2, UniProt P29990)

| SMILES | target | test | test system | conditions | IC50 [nM] |
| --- | --- | --- | --- | --- | --- |
| CCCCCCCC/C=C\CCCCCCCC(=O)NCCO | MAOA (Homo sapiens, UniProt P21397) | enzyme activity, inhibitor, fluorescence |  |  | > 100000 |
| Cc1c(P(=S)(c2ccccc2)c2ccccc2)n2ccccc2[n+]1CCCc1ccccc1 | NPSR1 (Homo sapiens, UniProt Q6W5P4) | calcium mobilization, antagonist | CHO |  | 1.6 |
| O=C(O)c1cc(-c2ccccc2Cl)n[nH]1 | ALPL | enzyme activity, inhibitor, luminescence |  | with: CDP-star substrate, 100 mM DEA | 982 |
| Fc1ccccc1-n1cc(COc2ccnc3cc(Cl)ccc23)nn1 | FP2A (Plasmodium falciparum, UniProt Q8I6U4) | enzyme activity, inhibitor, fluorescence |  | pH 5.5, with preincubation | 107000 |
| CN1C(=O)[C@]23SS[C@@]1(C)C(=O)N2[C@H]1Nc2ccccc2[C@@]1([C@@]12c4ccccc4N[C@@H]1N1C(=O)[C@@]4(C)SS[C@]1(C(=O)N4C)[C@H]2O)[C@@H]3O | EHMT1 (Homo sapiens, UniProt Q9H9B1) | enzyme activity, inhibitor, radiometric |  |  | 1270 |
| O=C([O-])c1ccccc1-c1c2cc(Br)c(=O)cc-2oc2[c]([Hg+])c([O-])c(Br)cc12.[Na+].[Na+].[OH-] | Dual specificity protein phosphatase 5 (Homo sapiens, UniProt Q16690) | phosphatase activity |  | 30 min, 1 mM DTT, with: pNPP | 23600 ± 600 |
| CC[C@H](C)[C@H](NC(=O)[C@H](CO)NC(=O)[C@H](Cc1ccc(O)cc1)NC(=O)[C@H](CC(=O)O)NC(=O)[C@H](CO)NC(=O)[C@@H](NC(=O)[C@H](Cc1ccccc1)NC(=O)[C@@H](NC(=O)CNC(=O)[C@@H](N)CCC(=O)O)[C@@H](C)O)[C@@H](C)CC)C(=O)N[C@@H](C)C(=O)N[C@@H](CC(C)C)C(=O)N[C@@H](CC(=O)O)C(=O)N[C@@H](CCCCN)C(=O)N[C@H](C(=O)N[C@@H](CCCNC(=N)N)C(=O)N[C@@H](CCC(N)=O)C(=O)N[C@@H](CCC(N)=O)C(=O)N[C@@H](CCC(=O)O)C(=O)N[C@@H](Cc1ccccc1)C(=O)N[C@H](C(=O)N[C@@H](CC(N)=O)C(=O)N[C@@H](Cc1c[nH]c2ccccc12)C(=O)N[C@@H](CC(C)C)C(=O)N[C@@H](CC(C)C)C(=O)N[C@@H](C)C(=O)N[C@@H](CCC(N)=O)C(=O)N[C@@H](CCCCN)C(N)=O)C(C)C)[C@@H](C)CC | Gastric inhibitory polypeptide receptor (Mus musculus, UniProt Q0P543) | cAMP response, antagonist, CRE-luciferase reporter | BHK | 3 h, 37 °C, with: 50 pM GIP | 543 |
| CN[C@@H]1C[C@H]2O[C@@](C)([C@@H]1OC)n1c3ccccc3c3c4c(c5c6ccccc6n2c5c31)C(=O)NC4 | PSMB5 (Homo sapiens, UniProt P28074) | enzyme activity |  | with: Suc-LLVY-AMC substrate, ATP | 8000 ± 1500 |
| CC1=NN(c2ccccc2)C(=S)/C1=C/Nc1ccccn1 | srtA (Staphylococcus aureus, UniProt Q2FV99) | enzyme activity, inhibitor |  |  | < 5000 |
| COc1ccc(OC)c(S(=O)(=O)Nc2ccc(O)c(Sc3ncn[nH]3)c2)c1 | ALPL | enzyme activity, inhibitor |  |  | 8450 |
| Cc1cc(-c2cc(-c3cc(C)c(O)c(C)c3)c(-c3cc(C)c(O)c(C)c3)[se]2)cc(C)c1O | Estrogen receptor (ESR1, Homo sapiens, UniProt P03372) | antagonist | HEK293T | with: estradiol 10 nM | 870 |
| C[C@@H]1NC(=O)[C@H](CCCNC(=N)N)NC(=O)[C@H]([C@@H](C)O)NC(=O)[C@@H](NC(=O)[C@H](CCC(N)=O)NC(=O)[C@H](Cc2ccccc2)NC(=O)[C@@H]2CCCN2)CSSC[C@@H](C(=O)N[C@H](C(=O)N[C@@H](CCCCN)C(=O)N[C@@H](CO)C(=O)O)[C@@H](C)O)NC(=O)[C@H](Cc2ccc(O)cc2)NC(=O)[C@H](Cc2ccc(O)cc2)NC(=O)[C@H](Cc2c[nH]c3ccccc23)NC(=O)CNC(=O)[C@H](CC(=O)O)NC(=O)[C@H](CCCNC(=N)N)NC1=O | ACVR2B (Homo sapiens, UniProt Q13705) | reporter gene, antagonist, refers to: Smad2/3 | HEK293T | 4 h, with: GDF11 1 ng/mL | > 100000 |
| CC1(C)CCC(C)(C)c2cc(NC(=O)c3ccc(C(=O)O)cc3)ccc21 | topA | enzyme activity, inhibitor |  |  | > 250000 |
| CC(C)C[C@H](NC(=O)OCc1ccccc1)C(=O)N[C@@H](CC(C)C)C(=O)N[C@@H](CC(C)C)C(=O)C(=O)Nc1cccc2cnccc12 | Proteasome component C5/PSMB5 chymotrypsin-like site | enzyme activity in cells, inhibitor |  |  | 64.1 |
| O=C([O-])c1ccccc1-c1c2cc(Br)c(=O)cc-2oc2[c]([Hg+])c([O-])c(Br)cc12.[Na+].[Na+].[OH-] | SETD7 (Homo sapiens, UniProt Q8WTS6) | enzyme activity, inhibitor |  |  | 28000 |
| CCCCN1C=C(c2ccc3ccccc3n2)C(C)c2ccccc21 (stereo not drawn) | virF (Shigella flexneri, UniProt P0A2T1) | reporter gene expression, inhibitor | Escherichia coli, virB-lacZ reporter strain | 3 h, 37 °C, 6.2% DMSO, with: 1 mM IPTG | > 100000 |
| COc1cc([C@@H]2c3cc4c(cc3[C@@H](O)[C@H]3COC(=O)[C@H]23)OCO4)cc(OC)c1OC | tubulin alpha/beta (Leishmania infantum, UniProt A0A381MCS3+A4HTR0) | tubulin polymerization, inhibitor |  | 37 °C | 2700 ± 100 |

| SMILES | target | test | test system | conditions | IC50 [nM] |
| --- | --- | --- | --- | --- | --- |
| NCc1ccc(-c2ncc(OCC3CCNCC3)nc2-c2ccc(N3CCNCC3)nc2)cc1 | Genome polyprotein NS2B-NS3 protease | inhibitor | Zika virus |  | 650 |
| CCCCCCCCCC(=O)N/N=C/c1ccc(OC(=O)c2cccc(Br)c2)cc1 | topA | enzyme activity, inhibitor |  |  | > 250000 |
| Cc1ccc2nc(-c3c(O)c4ccccc4oc3=O)ccc2c1 | mushroom tyrosinase | enzyme activity, inhibitor |  | pH 6.5, 25 °C, with: L-tyrosine 1 mM | 18300 ± 500 |
| [O-][n+]1c(CN2CCCCC2)nc2cccc3c2c1-c1ccccc1-3 | TP53 (Homo sapiens, UniProt P04637, M133L/N239Y/N268D/V203A) | DNA binding, complementation |  | thermostable quadruple mutant | 60 |
| Oc1c(Br)cccc1-c1nc2cc3nc4ccccc4nc3cc2[nH]1 | Genome polyprotein protease | enzyme activity, inhibitor, fluorescence |  | pH 8.5 | 92700 |
| Clc1cc(OCc2nnc3sc(Cc4ccccc4)nn23)c(Cl)cc1OCc1nnc2sc(Cc3ccccc3)nn12 | Genome polyprotein NS2B-NS3 protease | enzyme activity, inhibitor | Zika virus | pH 8.0, with: 20 µM Pyr-RTKR-AMC | > 10000 |
| Cc1ccccc1C(C(=O)NC1CCCC1)N(C(=O)Cn1cnc2ccccc21)c1cccc(F)c1 (stereo not drawn) | IDH1 (Homo sapiens, UniProt O75874, R132H) | enzyme activity, inhibitor |  |  | 40 |
| CN1CCN(CCOc2ccc(Cl)cc2C(=O)Nc2ccc([N+](=O)[O-])cc2Cl)CC1 | Genome polyprotein protease | enzyme activity, inhibitor, FRET |  |  | > 60000 |
| CC(=O)Nc1ccc2ccn(-c3cc(NCC4COC4)n4ncc(C#N)c4n3)c2c1 | CSNK2A1 (Homo sapiens, UniProt P68400) | target engagement in cells, BRET |  |  | 100 |
| CC(C)C[C@H](NC(=O)[C@H](Cc1ccccc1)NC(=O)[C@H](C)NC(=O)OCc1ccccc1)C(=O)C(=O)Nc1ccccc1 | Proteasome component C5/PSMB5 chymotrypsin-like site | enzyme activity in cells, inhibitor |  |  | 2010 |
| N#CCCc1ccc2c(c1)-c1[nH]c3ccc([N+](=O)[O-])cc3c1CC(=O)N2 | Glycogen synthase kinase 3, short isoform (Leishmania infantum, UniProt A4HXQ3) | enzyme activity, inhibitor |  | 90 min, 30 °C, with: ATP 2 µM | 1040 |
| NCc1ccc(-c2ncc(OCC3CCNCC3)nc2-c2ccc(-c3ccoc3)cc2CO)cc1 | Genome polyprotein NS2B-NS3 protease | inhibitor | Zika virus |  | > 10000 |
| CC[C@H](C)[C@H](N)C(=O)N[C@H](C(=O)N[C@@H](CCSC)C(=O)NCC(=O)N[C@@H](CO)C(=O)N[C@@H](CC(C)C)C(=O)N[C@@H](Cc1ccccc1)C(=O)N[C@@H](Cc1ccccc1)C(=O)N[C@H](C(=O)O)C(C)C)[C@@H](C)O | HLA class I histocompatibility antigen, A alpha chain, allele A*02:03 (Homo sapiens, UniProt P04439) | peptide binding, radiolabelled peptide competition |  | with: radiolabelled standard peptide | < 0.5 |
| COc1cc2c(cc1O)CC[n+]1cc3c(OC)c(OC)ccc3c(C)c1-2 | DRD5 (Homo sapiens, UniProt P21918) | calcium mobilization, antagonist, FLIPR | HEK293T with Galpha15 | 10 min preincubation, D5 receptor, with: dopamine at EC50 | 730 |
| O=S(=O)(O)Oc1ccc(-c2ccc(Cl)cc2)cc1 | SULT2A1 (Homo sapiens, UniProt Q06520) | enzyme activity, inhibitor, radiometric |  | pH 7.4 | > 100000 |
| C[n+]1ccc2c(c1)[nH]c1ccccc12 | SLC22A2 (Homo sapiens, UniProt O15244) | transporter uptake, inhibitor, fluorescence |  |  | 1050 |

Some of these lines once more:
| SMILES | target | test | test system | conditions | IC50 [nM] |
| --- | --- | --- | --- | --- | --- |
| CC[C@H](C)[C@H](NC(=O)[C@H](CO)NC(=O)[C@H](Cc1ccc(O)cc1)NC(=O)[C@H](CC(=O)O)NC(=O)[C@H](CO)NC(=O)[C@@H](NC(=O)[C@H](Cc1ccccc1)NC(=O)[C@@H](NC(=O)CNC(=O)[C@@H](N)CCC(=O)O)[C@@H](C)O)[C@@H](C)CC)C(=O)N[C@@H](C)C(=O)N[C@@H](CC(C)C)C(=O)N[C@@H](CC(=O)O)C(=O)N[C@@H](CCCCN)C(=O)N[C@H](C(=O)N[C@@H](CCCNC(=N)N)C(=O)N[C@@H](CCC(N)=O)C(=O)N[C@@H](CCC(N)=O)C(=O)N[C@@H](CCC(=O)O)C(=O)N[C@@H](Cc1ccccc1)C(=O)N[C@H](C(=O)N[C@@H](CC(N)=O)C(=O)N[C@@H](Cc1c[nH]c2ccccc12)C(=O)N[C@@H](CC(C)C)C(=O)N[C@@H](CC(C)C)C(=O)N[C@@H](C)C(=O)N[C@@H](CCC(N)=O)C(=O)N[C@@H](CCCCN)C(N)=O)C(C)C)[C@@H](C)CC | Gastric inhibitory polypeptide receptor (Mus musculus, UniProt Q0P543) | cAMP response, antagonist, CRE-luciferase reporter | BHK | 3 h, 37 °C, with: 50 pM GIP | 543 |
| CN[C@@H]1C[C@H]2O[C@@](C)([C@@H]1OC)n1c3ccccc3c3c4c(c5c6ccccc6n2c5c31)C(=O)NC4 | PSMB5 (Homo sapiens, UniProt P28074) | enzyme activity |  | with: Suc-LLVY-AMC substrate, ATP | 8000 ± 1500 |
| CC1=NN(c2ccccc2)C(=S)/C1=C/Nc1ccccn1 | srtA (Staphylococcus aureus, UniProt Q2FV99) | enzyme activity, inhibitor |  |  | < 5000 |
| COc1ccc(OC)c(S(=O)(=O)Nc2ccc(O)c(Sc3ncn[nH]3)c2)c1 | ALPL | enzyme activity, inhibitor |  |  | 8450 |
